Measured values collected from several papers.
Numbered parts are unrelated; each lists some results of a single study.

Block 1
Target: Prothrombin, mature alpha-thrombin (F2, Homo sapiens, UniProt P00734)
Technique: aptamer microarray, sandwich
Molecule type: DNA with 2'F-ANA
Matrix: in vitro
Tested at: 200 nM
Notes: whole 15-mer aptamer, many near background
Together with: Cy3 exosite-II aptamer, 400 nM
Direction: higher = stronger binding
Measurement: mean fluorescence intensity
Oligonucleotide: GGTTGGTGTGGTTGG
2'F-ANA at 1 3 5 9 11 15: 57.1 a.u.
2'F-ANA at 1 3 9 10 12 14 15: 60.8 a.u.
2'F-ANA at 1 2 3 4 5 6 8 9 11 13 14 15: 53.9 a.u.
2'F-ANA at 1 3 4 6 13 14: 61.6 a.u.
2'F-ANA at 1 2 3 4 5 8 9 13 14 15: 46.9 a.u.
2'F-ANA at 1 2 3 5 6 7 10 15: 53.3 a.u.
2'F-ANA at 1 2 3 7 8 11 12 13: 351 a.u.
2'F-ANA at 4 7 8 11 12 13: 429 a.u.

Block 2
Target: TAR DNA-binding protein 43, full length, His tag (TARDBP, Homo sapiens, UniProt Q13148, residues 1-414)
Technique: RNA Bind-n-Seq
Molecule type: RNA
Matrix: in vitro
Tested at: 20 nM
Notes: 6-mer, flanks averaged, single round
Together with: 150 mM LiCl
Baseline: input library
Direction: higher = stronger binding
Measurement: 6-mer enrichment (R)
AGAUCA: 0.818
CAAUUG: 0.919
UUAAUG: 1.04
AUUACA: 0.882
UGGCGC: 1.05
ACUGCU: 0.882
CAAAUA: 0.898
UGUUCA: 0.961

Single results of other studies
MTA1 (Homo sapiens, UniProt Q13330)  interaction screen (HDAC2 (Homo sapiens, UniProt Q92769); cross-linking MS; hits only): cross-linked
VPHVIEEVM  binding (HLA class I histocompatibility antigen, A alpha chain, allele A*80:01 (Homo sapiens, UniProt P04439); peptide-MHC binding; peptide; concentration not given): inactive
SIN3A (Homo sapiens, UniProt Q96ST3)  interaction screen (ING1 (Homo sapiens, UniProt Q9UK53); cross-linking MS; hits only): cross-linked
NDUFS7 (Homo sapiens, UniProt O75251)  cross-linked residues (COX6C (Homo sapiens, UniProt P09669); cross-linking MS; cell fractions; together with: DMTMM): E61 to M1
NEFL (Homo sapiens, UniProt P07196)  interaction screen (VIM (Homo sapiens, UniProt P08670); cross-linking MS; hits only): cross-linked

For quick reference, copied from above (block 2):
AGAUCA: 0.818
CAAUUG: 0.919
UUAAUG: 1.04
AUUACA: 0.882
